Assay results gathered from unrelated publications.
Numbered parts are unrelated; each lists some results of a single study. Changes are numbered by the printed parent chain.

Block 1
Target: CRIPT, C-terminal peptide
Method: DHFR complementation, deep sequencing
Sample: yeast
Setting: single substitutions, model-inferred values
Relative to: wild type
Direction: higher = weaker binding
Parent: ERBIN, PDZ domain 1 (human); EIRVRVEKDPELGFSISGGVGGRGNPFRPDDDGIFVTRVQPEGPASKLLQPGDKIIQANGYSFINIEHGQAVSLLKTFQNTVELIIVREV; partner TKNYKQTSV
Variant	binding free energy change
A45M	1.6 kcal/mol
R88M	1.6 kcal/mol
G18W	0.79 kcal/mol
E42S	0.0477 kcal/mol
V90C	-0.109 kcal/mol
Y61K	-0.0876 kcal/mol
N59V	0.322 kcal/mol
V87K	-0.00412 kcal/mol
Q40F	0.237 kcal/mol
G33I	0.501 kcal/mol
R3F	0.0265 kcal/mol
S73I	0.0896 kcal/mol
E7W	0.123 kcal/mol
S46M	0.0464 kcal/mol
S73A	-0.0422 kcal/mol
S73Q	0.0323 kcal/mol

Block 2
Target: Histone acetyltransferase KAT6A, winged helix 1, GST fusion (KAT6A, Homo sapiens, UniProt Q92794, residues 1-85)
Method: protein binding microarray
Molecule type: double-stranded DNA, one strand shown
Sample: in vitro
Tested at: not given
Setting: 8-mer, flanks averaged, mean of 2 arrays, mostly near background
Relative to: not given
Direction: higher = stronger binding
Construct (chain): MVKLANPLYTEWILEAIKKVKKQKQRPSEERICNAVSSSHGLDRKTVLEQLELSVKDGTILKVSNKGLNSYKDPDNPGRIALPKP
Strand	E-score
CGGCGTCA	0.335
CCCCTTGA	-0.0866
ATTCGTGA	-0.122
ATGTCATC	-0.119
CAGGGCAC	-0.179
TCAACCGA	0.0908
AGATCTCC	-0.153
AAAGACGT	-0.153
CGTGAATC	-0.0397
ATTCAGAG	-0.104
CCTCACCG	0.0765
CGTCTCAA	-0.0185
ATGGCAGA	-0.03
CTTTATTA	-0.0911
AATTAATT	-0.0361
CCCTTGAG	-0.195
CGACCTTC	0.04
GGAATGCA	-0.17
CCCAAATA	-0.349
GTGTCCTA	0.0628

Block 3
Target: ABI1, truncated, D143A, DHFR fusion (Arabidopsis thaliana)
Method: DHFR PCA, deep sequencing
Sample: yeast
Setting: methotrexate growth selection, single substitutions
With: (+)-ABA 2500 µM
Relative to: wild-type fitted maximum
Direction: higher = stronger binding
Parent: PYL1, truncated, DHFR fusion (Arabidopsis thaliana); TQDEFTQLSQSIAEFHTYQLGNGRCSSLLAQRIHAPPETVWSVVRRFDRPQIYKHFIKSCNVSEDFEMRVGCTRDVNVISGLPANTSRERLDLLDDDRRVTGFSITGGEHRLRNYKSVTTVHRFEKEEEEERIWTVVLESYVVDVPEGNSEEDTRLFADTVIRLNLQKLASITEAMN
Variant	relative binding score [%]
L93K	99.6
C60H	51.7
I133D	107
H122F	63.9
L91C	91.8
W134K	99.9
L8T	105
N165R	-0.903
L8D	78.5
S11A	96.4
C25Y	65.6
L91S	37
F47I	-0.6
K116M	87.8
N177P	99.2
H122K	68.9
E139R	56.8
V136S	83.6
Q2G	80
S150D	93.8
E130N	103
H122R	66.3
R99G	97.3

Block 4
Target: Ras GTPase-activating protein-binding protein 1, C-terminal RGG region (G3BP1, Homo sapiens, UniProt Q13283)
Chain of UniProt Q13283 (whole entry, looked up): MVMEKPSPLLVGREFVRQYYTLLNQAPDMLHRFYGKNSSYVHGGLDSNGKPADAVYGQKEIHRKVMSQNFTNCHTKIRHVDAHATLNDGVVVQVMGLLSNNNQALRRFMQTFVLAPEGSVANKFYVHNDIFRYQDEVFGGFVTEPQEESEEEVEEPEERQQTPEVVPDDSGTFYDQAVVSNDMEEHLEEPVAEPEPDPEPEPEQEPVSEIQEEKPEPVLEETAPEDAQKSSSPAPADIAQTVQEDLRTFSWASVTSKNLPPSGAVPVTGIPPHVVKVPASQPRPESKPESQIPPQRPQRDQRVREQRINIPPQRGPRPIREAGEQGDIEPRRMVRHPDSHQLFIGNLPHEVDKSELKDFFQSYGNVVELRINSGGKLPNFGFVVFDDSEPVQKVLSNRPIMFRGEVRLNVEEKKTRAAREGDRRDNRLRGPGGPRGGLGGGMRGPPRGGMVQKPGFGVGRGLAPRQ
Method: RNA Bind-n-Seq
Molecule type: RNA
Sample: in vitro
Tested at: 1 µM
Setting: whole 134-nt RNA, ends assumed
With: 150 mM KCl
Relative to: input library
Direction: higher = stronger binding
All sequences stand within: GGGAGUUCUACAGUCCGACGAUC … UGGAAUUCUCGGGUGUCAAGG
Strand	log2 enrichment
CAAGUCCUGUGCUACACAUCGUAUGUACCGAAUCGGGCCCGGCCCGGGGCCCGGGAAAGUAUUAUGUUACGCCGUUCGGAUCUGCACUUC	-1.67
CCUCAAGUCCUGUGCUACACAUCGUAUGUACCGAAUCGGUUUGGUUUGGUGGAAAGUAUUAUGUUACGCCGUUCGGAUCUGCACUUCCAG	-1.23
AGUAGCUAUGGUCAACAAAGCAGCUAUGGGCAGCAGCCUCCCACUAGUUACCCACCCCAAACUGGAUCCUACAGCCAAGCUCCAAGUCAA	-0.224
AGUCCUGUGCUACACAUCGUAUGUACCGAAUCGGGGAAAAAGGGGAGGGGAAAGGGGAAAGUAUUAUGUUACGCCGUUCGGAUCUGCACU	1.82
CCUGUGCUACACAUCGUAUGUACCGAAUCGGGGCCCCCCCGGCCCCCCCGGGCCCCCCCGGAAAGUAUUAUGUUACGCCGUUCGGAUCUG	-1.28
UGAAGGCGCGGCCCUUCCCCGACGGCCUGGCCGAGGACAUCGAUAAAGGCGAGGUGUCCGCCCGUCAGGAGCUCAAGCAGCGGGCGCGCU	-1.32
AGUCCUGUGCUACACAUCGUAUGUACCGAAUCGGGAAAAGGGGAAAAGGGAAAAGGGAAAGUAUUAUGUUACGCCGUUCGGAUCUGCACU	1.05
CCUCAAGUCCUGUGCUACACAUCGUAUGUACCGAAUCGGAGGGAGGGAGGGGAAAGUAUUAUGUUACGCCGUUCGGAUCUGCACUUCCAG	0.542
CACAGACAACACGCACCCACACAGACACAGAGGGAAGGGGUUGGGAUGGGGACAGCGUGCACAGCAGGGCGGGGUAGGACCCCAGCCCCU	-0.558

Block 5
Target: Centromere-binding protein 1, full length, N-terminal tag (CBF1, Saccharomyces cerevisiae, UniProt P17106, residues 1-351)
Chain of UniProt P17106 (whole entry, looked up): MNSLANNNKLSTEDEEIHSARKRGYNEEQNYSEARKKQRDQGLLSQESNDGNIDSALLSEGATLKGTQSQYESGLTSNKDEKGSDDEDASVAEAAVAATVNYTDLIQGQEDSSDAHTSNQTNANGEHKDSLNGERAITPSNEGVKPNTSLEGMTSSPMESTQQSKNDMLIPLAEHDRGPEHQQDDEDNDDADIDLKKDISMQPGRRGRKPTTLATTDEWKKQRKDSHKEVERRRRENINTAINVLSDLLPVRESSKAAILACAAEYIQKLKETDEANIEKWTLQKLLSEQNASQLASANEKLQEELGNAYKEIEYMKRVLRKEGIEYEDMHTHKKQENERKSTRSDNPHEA
Method: protein-binding microarray
Molecule type: double-stranded DNA, one strand shown
Sample: in vitro
Tested at: 0.8 µM
Setting: whole 60-bp probe, no competitor
Direction: higher = stronger binding
All sequences stand within: … GTCTTGATTCGCTTGACGCTGCTG
Strand	fluorescence intensity [a.u.]
CTACGGACGGATTATCACGCAAGTTTTTTAACGTTC	520
TGTACGAAGCTATGTCATCATAGTATAGTAGTTAGG	518
CTATATGGACATAGATGCACCACGCGGTGTTTCTTC	1100
CTAACTGAGACAGACTTCGTCACCGTGGAAGTATTC	502
TGTACGAAGCTATTGCACGTACCTATAGTAGTTAGG	518
CTAAAAAGACTAAGGCGGGTGAGGGGAATTGAATTC	473
CTACAGATGTCAGACAACGTGCAGCATCTTTTTTTC	666
CTAGCATAATATTAATACGTGTCACTCTCACTATTC	578
CTAGCACAAAAAGCTGACATCAGGAAGAAAATCTTC	499
GAAATCAGCGCGTATGTGGTGTGGTGTGTGTTTTAG	555
GAATGAAGAAAAAGGCTGATGGTCGACAAGAAATAG	539
CTAATTTAGGGAAGTCACGGTAACTAATGGATTTTC	666
CTAGCTTCCTTTACTGTCACGAGCGGCCCATAATTC	1380
CTAAGAAAAAAATACTAGGTGACATTTTAGAGATTC	503
TGTACGAAGCTATTGGACATGACTATAGTAGTTAGG	518
GAACTTCCCCTAGGTCACAACTTTTTTTCCCTCTAG	592
TGTACGAAGCTATCCCACGGTACTATAGTAGTTAGG	505
CTATTCGGAGAATCTCACATGCCACTGAAGATTTTC	582
TGTACGAAGCTATGACGCGTGGATATAGTAGTTAGG	554

A few entries again (block 1):
Variant	binding free energy change
V90C	-0.109 kcal/mol
Y61K	-0.0876 kcal/mol
N59V	0.322 kcal/mol
V87K	-0.00412 kcal/mol
Q40F	0.237 kcal/mol
G33I	0.501 kcal/mol
